Published values from different studies.
Each line is one published result; not all experiments were run side by side.
Cell line: MIA PaCa-2

COc1cc([C@@H]2c3cc4c(cc3[C@@H](OCc3cc(-c5ccc(C#N)cc5)no3)[C@H]3COC(=O)C23)OCO4)cc(OC)c1OC (some centres unmarked) has a GI50 of 4.02 µM (cell growth or viability, SRB; 48 h).
The GI50 of CN(C)c1ccc(/C=C/c2cc[n+](Cc3ccc(F)cc3)cc2)cc1 is reported as 1.9 µM (cell growth or viability, ATP luminescence).
The GI50 of O=C(CSc1nc2ccccc2s1)Nc1nonc1[N+](=O)[O-] is reported as over 40 µM (cell growth or viability, ATP luminescence).
COC[C@@H](C)N[C@H]1CC[C@H](Nc2cc(-c3cccc(NCC4(C#N)CCOCC4)n3)c(Cl)cn2)CC1 — result for protein level: “decreased” (immunoblot, item: MYC; concentration not given, 6 h).
For CS(=O)(=O)c1sc(NC(=O)Nc2ccc(Cl)cc2)c2c1C=CCC2, the apoptotic cells was 90.5% (annexin V/PI flow cytometry; 80 µM, 72 h).
CCCCCC[n+]1ccccc1/C=C/c1ccc(N(C)C)cc1 has a GI50 of 0.071 µM (cell growth or viability, ATP luminescence).
For O=C(Nc1ccc(Br)cc1)Nc1ccc2nc(-c3ccco3)c(-c3ccco3)nc2c1, phospho-IKKβ level read “decreased” (Western blot, item: p-IKKβ; concentration not given).
COc1ccc(-c2cc(COC3c4cc5c(cc4C(c4cc(OC)c(OC)c(OC)c4)C4C(=O)OCC34)OCO5)on2)cc1 (centres unmarked) gave a GI50 of 0.17 µM (cell growth or viability, SRB; 48 h).

A few entries again:
COc1cc([C@@H]2c3cc4c(cc3[C@@H](OCc3cc(-c5ccc(C#N)cc5)no3)[C@H]3COC(=O)C23)OCO4)cc(OC)c1OC (some centres unmarked) has a GI50 of 4.02 µM (cell growth or viability, SRB; 48 h).
